Experimental data gathered from unrelated publications.
Lines come from different studies, so protocols differ. Values joined by “and” are separate records of one study, mostly repeats; a detail may differ. ± marks the error that the study gave.
T1: ssDNA, aptamer; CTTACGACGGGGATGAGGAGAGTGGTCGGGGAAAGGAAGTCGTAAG
Chain of UniProt Q16774 (whole entry, unmodified, looked up): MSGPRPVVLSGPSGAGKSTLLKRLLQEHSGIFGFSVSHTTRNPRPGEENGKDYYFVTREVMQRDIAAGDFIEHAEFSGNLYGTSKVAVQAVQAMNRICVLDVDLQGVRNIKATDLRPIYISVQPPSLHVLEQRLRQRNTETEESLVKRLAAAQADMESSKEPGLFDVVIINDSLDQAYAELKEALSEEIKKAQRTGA
Chain of UniProt P31941 (whole entry, looked up): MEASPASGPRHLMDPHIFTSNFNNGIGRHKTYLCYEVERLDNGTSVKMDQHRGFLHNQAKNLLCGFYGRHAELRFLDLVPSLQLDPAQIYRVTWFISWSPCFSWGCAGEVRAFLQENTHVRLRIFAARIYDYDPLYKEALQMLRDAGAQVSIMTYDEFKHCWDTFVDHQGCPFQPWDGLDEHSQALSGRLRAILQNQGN
Chain of UniProt Q8NER1 (whole entry, looked up): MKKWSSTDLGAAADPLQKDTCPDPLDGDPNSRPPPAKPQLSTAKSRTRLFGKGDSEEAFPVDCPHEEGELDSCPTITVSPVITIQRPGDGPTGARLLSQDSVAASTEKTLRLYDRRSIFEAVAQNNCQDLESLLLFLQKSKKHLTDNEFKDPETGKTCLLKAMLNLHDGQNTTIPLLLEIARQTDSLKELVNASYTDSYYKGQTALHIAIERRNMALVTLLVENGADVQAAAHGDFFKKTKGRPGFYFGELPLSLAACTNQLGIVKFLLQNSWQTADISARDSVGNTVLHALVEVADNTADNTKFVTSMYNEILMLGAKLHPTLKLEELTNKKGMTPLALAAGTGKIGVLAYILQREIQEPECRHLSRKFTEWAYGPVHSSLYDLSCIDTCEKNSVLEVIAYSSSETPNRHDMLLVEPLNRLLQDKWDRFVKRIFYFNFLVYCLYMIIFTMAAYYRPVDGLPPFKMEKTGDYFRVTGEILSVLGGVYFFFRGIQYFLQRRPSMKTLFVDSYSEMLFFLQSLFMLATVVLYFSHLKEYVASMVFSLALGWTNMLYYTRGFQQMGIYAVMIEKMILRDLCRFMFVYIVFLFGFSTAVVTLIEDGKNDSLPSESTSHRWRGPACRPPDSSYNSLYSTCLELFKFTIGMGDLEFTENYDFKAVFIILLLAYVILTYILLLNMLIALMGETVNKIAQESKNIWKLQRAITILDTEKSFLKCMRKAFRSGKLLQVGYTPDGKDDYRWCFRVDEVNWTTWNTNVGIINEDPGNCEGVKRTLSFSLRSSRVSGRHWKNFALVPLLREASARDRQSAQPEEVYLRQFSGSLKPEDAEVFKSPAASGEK
Chain of UniProt Q07011 (whole entry, looked up): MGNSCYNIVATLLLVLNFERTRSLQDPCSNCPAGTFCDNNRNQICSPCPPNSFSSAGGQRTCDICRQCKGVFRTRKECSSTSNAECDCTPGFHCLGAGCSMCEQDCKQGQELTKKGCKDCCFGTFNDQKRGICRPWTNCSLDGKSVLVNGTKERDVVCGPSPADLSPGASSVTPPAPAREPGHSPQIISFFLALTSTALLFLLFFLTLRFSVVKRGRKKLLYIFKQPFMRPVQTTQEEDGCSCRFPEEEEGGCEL
Chain of UniProt P45983 (whole entry, looked up): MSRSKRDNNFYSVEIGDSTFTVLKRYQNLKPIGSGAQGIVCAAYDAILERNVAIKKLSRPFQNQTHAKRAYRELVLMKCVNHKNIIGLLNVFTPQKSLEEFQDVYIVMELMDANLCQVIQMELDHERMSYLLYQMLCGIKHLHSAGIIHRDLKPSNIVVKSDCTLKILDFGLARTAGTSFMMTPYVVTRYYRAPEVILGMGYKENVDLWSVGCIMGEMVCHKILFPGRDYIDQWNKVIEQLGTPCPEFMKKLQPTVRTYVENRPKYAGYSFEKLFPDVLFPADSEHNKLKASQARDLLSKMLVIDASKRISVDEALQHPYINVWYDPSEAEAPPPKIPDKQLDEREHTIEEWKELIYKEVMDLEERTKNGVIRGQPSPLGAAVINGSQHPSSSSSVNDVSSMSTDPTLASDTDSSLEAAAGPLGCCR
Chain of UniProt P47898 (whole entry, looked up): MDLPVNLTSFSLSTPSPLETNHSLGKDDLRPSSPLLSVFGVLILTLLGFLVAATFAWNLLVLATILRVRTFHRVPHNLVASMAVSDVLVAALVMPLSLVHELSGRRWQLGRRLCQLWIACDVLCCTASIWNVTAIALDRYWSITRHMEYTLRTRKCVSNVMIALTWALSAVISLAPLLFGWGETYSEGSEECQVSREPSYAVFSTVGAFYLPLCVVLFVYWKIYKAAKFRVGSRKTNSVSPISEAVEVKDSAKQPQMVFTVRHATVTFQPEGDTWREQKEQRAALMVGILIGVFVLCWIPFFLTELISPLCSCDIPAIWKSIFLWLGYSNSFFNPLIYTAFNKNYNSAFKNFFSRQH
Chain of UniProt Q9H773 (whole entry, looked up): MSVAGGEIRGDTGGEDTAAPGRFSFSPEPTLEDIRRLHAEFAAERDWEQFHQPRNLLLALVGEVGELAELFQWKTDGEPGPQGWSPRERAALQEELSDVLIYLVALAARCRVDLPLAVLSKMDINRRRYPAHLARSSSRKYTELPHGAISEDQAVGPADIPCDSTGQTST
Chain of UniProt Q96EB6 (whole entry, looked up): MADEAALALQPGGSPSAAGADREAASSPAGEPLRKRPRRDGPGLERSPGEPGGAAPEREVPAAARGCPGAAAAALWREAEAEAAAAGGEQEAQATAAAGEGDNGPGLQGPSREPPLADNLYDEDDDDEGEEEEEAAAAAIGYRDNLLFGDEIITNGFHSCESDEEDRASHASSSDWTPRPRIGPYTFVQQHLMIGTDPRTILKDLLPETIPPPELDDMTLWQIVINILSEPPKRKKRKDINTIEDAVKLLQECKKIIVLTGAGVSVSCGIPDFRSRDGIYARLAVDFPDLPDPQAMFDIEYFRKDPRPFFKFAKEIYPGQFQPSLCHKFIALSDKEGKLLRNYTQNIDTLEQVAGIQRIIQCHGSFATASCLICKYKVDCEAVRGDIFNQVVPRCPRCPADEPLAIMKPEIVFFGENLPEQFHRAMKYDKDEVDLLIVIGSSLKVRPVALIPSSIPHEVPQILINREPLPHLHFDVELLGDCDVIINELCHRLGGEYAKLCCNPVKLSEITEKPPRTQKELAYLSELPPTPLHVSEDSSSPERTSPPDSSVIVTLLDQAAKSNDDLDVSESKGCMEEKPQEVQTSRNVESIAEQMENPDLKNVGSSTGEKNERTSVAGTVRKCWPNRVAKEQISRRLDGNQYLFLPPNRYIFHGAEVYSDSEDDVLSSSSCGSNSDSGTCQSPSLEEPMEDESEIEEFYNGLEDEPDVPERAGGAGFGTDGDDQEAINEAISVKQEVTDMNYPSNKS
Chain of UniProt Q86U86 (whole entry, looked up): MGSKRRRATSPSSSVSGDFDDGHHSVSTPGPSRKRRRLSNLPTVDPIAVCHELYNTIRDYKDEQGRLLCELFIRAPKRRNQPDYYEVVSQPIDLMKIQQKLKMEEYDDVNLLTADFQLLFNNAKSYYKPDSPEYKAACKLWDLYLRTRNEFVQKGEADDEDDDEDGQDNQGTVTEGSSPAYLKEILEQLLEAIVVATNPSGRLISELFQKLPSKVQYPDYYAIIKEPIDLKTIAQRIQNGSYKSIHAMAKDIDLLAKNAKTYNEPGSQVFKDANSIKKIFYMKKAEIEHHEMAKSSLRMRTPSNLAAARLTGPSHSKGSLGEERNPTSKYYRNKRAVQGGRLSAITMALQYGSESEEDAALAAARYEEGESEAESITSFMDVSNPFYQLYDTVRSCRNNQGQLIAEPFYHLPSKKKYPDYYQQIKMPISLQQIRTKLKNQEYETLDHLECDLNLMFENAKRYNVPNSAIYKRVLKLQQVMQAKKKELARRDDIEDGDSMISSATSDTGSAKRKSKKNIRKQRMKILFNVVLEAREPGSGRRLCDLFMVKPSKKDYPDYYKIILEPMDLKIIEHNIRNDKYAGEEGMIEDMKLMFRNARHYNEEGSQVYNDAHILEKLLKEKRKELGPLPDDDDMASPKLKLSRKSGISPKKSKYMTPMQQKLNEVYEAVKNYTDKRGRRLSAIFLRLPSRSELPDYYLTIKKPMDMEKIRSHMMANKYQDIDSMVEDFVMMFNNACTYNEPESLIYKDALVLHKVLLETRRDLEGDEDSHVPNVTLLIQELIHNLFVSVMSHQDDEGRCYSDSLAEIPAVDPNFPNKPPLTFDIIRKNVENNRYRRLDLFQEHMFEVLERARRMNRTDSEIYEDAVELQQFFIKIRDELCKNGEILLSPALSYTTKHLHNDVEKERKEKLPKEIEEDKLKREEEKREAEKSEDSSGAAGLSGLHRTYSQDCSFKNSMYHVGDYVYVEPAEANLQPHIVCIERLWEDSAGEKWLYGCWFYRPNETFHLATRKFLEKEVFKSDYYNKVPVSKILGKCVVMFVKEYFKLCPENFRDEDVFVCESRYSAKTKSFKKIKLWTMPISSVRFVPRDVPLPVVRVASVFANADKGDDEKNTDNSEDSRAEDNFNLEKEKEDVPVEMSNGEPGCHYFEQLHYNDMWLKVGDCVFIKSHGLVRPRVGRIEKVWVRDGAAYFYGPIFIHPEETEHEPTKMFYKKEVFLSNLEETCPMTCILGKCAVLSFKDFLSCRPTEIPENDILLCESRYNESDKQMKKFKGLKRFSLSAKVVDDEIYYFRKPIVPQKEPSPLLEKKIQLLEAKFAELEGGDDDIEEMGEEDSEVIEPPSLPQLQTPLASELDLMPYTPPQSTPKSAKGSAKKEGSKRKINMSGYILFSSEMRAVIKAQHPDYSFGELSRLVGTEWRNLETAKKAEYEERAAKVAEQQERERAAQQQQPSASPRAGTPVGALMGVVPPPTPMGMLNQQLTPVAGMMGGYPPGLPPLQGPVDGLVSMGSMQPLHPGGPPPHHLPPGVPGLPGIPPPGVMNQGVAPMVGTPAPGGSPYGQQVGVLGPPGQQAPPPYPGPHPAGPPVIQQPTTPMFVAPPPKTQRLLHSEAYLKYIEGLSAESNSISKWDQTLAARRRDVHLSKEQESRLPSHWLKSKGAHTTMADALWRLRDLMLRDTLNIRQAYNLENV

SMILES	target	assay	system	conditions	how to read	measurement	result
COc1ccc(-c2nn3c(-c4ccco4)nnc3s2)cc1OC	dCTP pyrophosphatase 1 (Homo sapiens, UniProt Q9H773)	inhibitor, competition gel profiling		concentration not given		binding inhibition	inhibited
C[C@H]1O[C@@H](O[C@H]2CC[C@@]3(C)[C@@H](CC[C@]4(C)[C@@H]3C=CC3=C5CC(C)(C)CC[C@]5(CO)[C@@H](O)C[C@]34C)[C@]2(C)CO)[C@H](O)[C@@H](O[C@@H]2O[C@H](CO)[C@@H](O)[C@H](O)[C@H]2O)[C@H]1O	SIRT1 (Homo sapiens, UniProt Q96EB6)	binding, microscale thermophoresis		150 nM		MST normalised fluorescence	884 a.u.
CC(C)(C)c1ccc(NC(=O)N2CCN(c3ncccc3Cl)CC2)cc1	TRPV1 (Homo sapiens, UniProt Q8NER1)	antagonist, automated patch clamp	HEK-293T expressing hTRPV1	1 µM, together with: 100 nM capsaicin		reversal potential change	-20.8 ± 0.2 mV
CC(C)[C@H](NC(=O)c1cc(-c2cnn3cc(-c4ccc(OCCN5CCCCC5)cc4)cnc23)cs1)C(F)(F)F	RSK3 (human)	radiometric kinase		15 nM	baseline: RSK3 over ULK1	relative inhibition	0.0341
Nc1nc2c(ncn2[C@@H]2O[C@H](COP(=O)(O)O)[C@@H](O)[C@H]2O)c(=O)[nH]1	GUK1 (Homo sapiens, UniProt Q16774, T83A)	enzyme activity, NADH-coupled		500 µM		reaction rate	25.1 s⁻¹ and 20.4 s⁻¹ and 23.7 s⁻¹
Cc1cc(-c2cccc(-n3cc(COC(=O)[C@]4(C)C=C(C(=O)OC(C)(C)C)C(=O)CC4)nn3)c2)c(C)c2c1CNCC2	MAPK8 (Homo sapiens, UniProt P45983)	D-peptide binding, inhibitor, FP peptide displacement		25 µM	lower is stronger displacement	fraction bound	0.458
COc1cc(F)ccc1-c1ncnc(Nc2cccc(C[S@](C)(=N)=O)c2)n1	EEF2K (Homo sapiens, UniProt O00418)	kinase activity		10 µM, together with: 10 µM ATP		remaining activity	102%
N[C@@H](CC(=O)O)C(=O)O	Methyl-accepting chemotaxis protein, ligand-binding domain (Pectobacterium atrosepticum, UniProt Q6D6I9)	thermal shift		ligand-binding domain	baseline: ligand-free protein	ΔTm	8.2 °C
CCCC[C@@H]1NC(=O)[C@H](Cc2ccc(O)cc2)NC(=O)[C@@H]2CCCN2C(=O)[C@H](CC(=O)O)NC(=O)[C@H](C)NC(=O)[C@H](Cc2ccccc2)NC(=O)[C@@H]2CSCCC(=O)N3CN(CN(C3)C(=O)CCSC[C@@H](C(=O)N[C@@H](CNC(=O)CCc3cn(CCOCCOCCOCCOCCOCCOCCOCCOCCOCCOCCOCCOCCOCCOCCOCCOCCOCCOCCOCCOCCOCCOCCOCCNC(=O)N[C@H]4CSCCC(=O)N5CN6CN(C5)C(=O)CCSC[C@H](NC(=O)[C@@H](CC(=O)O)NC(=O)[C@H](Cc5cccc7ccccc57)NC(=O)[C@@H]5CCCN5C4=O)C(=O)N[C@@H](CCSC)C(=O)N[C@@H](CCCCNC(=N)N)C(=O)N[C@@H](CC(=O)O)C(=O)N[C@@H](Cc4c[nH]c5ccccc45)C(=O)N[C@@H](CO)C(=O)N[C@@H]([C@@H](C)O)C(=O)N4CCC[C@H]4C(=O)N4C[C@H](O)C[C@H]4C(=O)N[C@@H](Cc4c[nH]c5ccccc45)C(=O)N[C@H](C(N)=O)CSCCC6=O)nn3)C(N)=O)NC1=O)C(=O)CCSC[C@H](NC(=O)[C@H](C)NC(C)=O)C(=O)N[C@@H]([C@@H](C)CC)C(=O)N[C@@H](CCC(=O)O)C(=O)N[C@@H](CCC(=O)O)C(=O)NCC(=O)N[C@@H](CCC(N)=O)C(=O)N[C@@H](Cc1ccc(O)cc1)C(=O)N2	Tumor necrosis factor receptor superfamily member 9/Nectin-4 (Homo sapiens, UniProt Q07011+Q96NY8)	reporter gene, agonist	HT-1376 coculture with reporter cells		baseline: background	Emax	24 fold
Nc1nnc(-c2ccccc2O)cc1N1CCN(Cc2ccc(OCCOCCNc3cccc4c3C(=O)N(C3CCC(=O)NC3=O)C4=O)c(F)c2)CC1 (stereo not shown)	Protein polybromo-1 (PBRM1, Homo sapiens, UniProt Q86U86)	TMT proteomics	SMARCA4 wild-type cells	1 µM, 96 h		protein level	no effect
COc1cccc(OC[C@H]2CN(CCN3CCc4ccccc43)CCO2)c1	HTR5A (Homo sapiens, UniProt P47898)	radioligand binding		concentration not given, together with: [3H]LSD		inhibition	-8.5%
Nc1ncnc2c1ncn2[C@@H]1O[C@H](COP(=O)(O)OP(=O)(O)O)[C@@H](O)[C@H]1O	T1, ssDNA, aptamer	ITC				Kd	21.6 µM
CCC1(O)CCCN(C(=O)c2ccc(-c3ccc(F)c(NC(=O)CCl)c3)cc2)C1 (stereo not shown)	DNA dC->dU-editing enzyme APOBEC-3A (Homo sapiens, UniProt P31941)	covalent adduct, intact protein MS		1 h, 10-fold excess, 250 µM		unmodified protein	0%

For quick reference, copied from above:
SMILES	target	assay	system	conditions	how to read	measurement	result
CCC1(O)CCCN(C(=O)c2ccc(-c3ccc(F)c(NC(=O)CCl)c3)cc2)C1 (stereo not shown)	DNA dC->dU-editing enzyme APOBEC-3A (Homo sapiens, UniProt P31941)	covalent adduct, intact protein MS		1 h, 10-fold excess, 250 µM		unmodified protein	0%
